Experimental data of several laboratories.
± gives the spread as reported.

For `CC(C)C[C@@H]1NC(=O)CNC(=O)[C@H](CC(N)=O)NC(=O)[C@H](CCCNC(=N)N)NC(=O)[C@H]([C@@H](C)O)NC(=O)[C@@H]2CSSC[C@@H]3NC(=O)[C@H]([C@@H](C)O)NC(=O)CNC(=O)CNC(=O)[C@H](C(C)C)NC(=O)[C@@H]4CSSC[C@H](NC(=O)[C@H]([C@@H](C)O)NC(=O)[C@H](CSSC[C@H](NC(=O)[C@H](C(C)C)NC(=O)[C@@H]5CCCN5C1=O)C(=O)NCC(=O)N[C@@H](CCC(=O)O)C(=O)N[C@@H]([C@@H](C)O)C(=O)N4)NC(=O)CNC(=O)[C@@H]1CCCN1C(=O)[C@H]([C@@H](C)O)NC(=O)[C@H](CC(N)=O)NC3=O)C(=O)N[C@@H](CO)C(=O)N[C@@H](Cc1c[nH]c3ccccc13)C(=O)N1CCC[C@H]1C(=O)N[C@@H](C(C)C)C(=O)N2`, the remaining peptide was 95 ± 0.5% (HPLC; ammonium bicarbonate; 180 µM, 7 days, pH 9.0, 25 °C, deamidation stability).
`CSCC[C@H](N)C(=O)N[C@@H](CC(C)C)C(=O)N[C@@H](CCCNC(=N)N)C(=O)N[C@@H](Cc1c[nH]c2ccccc12)C(=O)N[C@@H](CO)C(=O)N[C@@H](CCCNC(=N)N)C(=O)N[C@@H](CCCCN)C(=O)N[C@@H](CC(C)C)C(=O)N1CCC[C@H]1C(=O)N[C@@H](CS)C(=O)N[C@H](C(=O)N[C@@H](CO)C(N)=O)C(C)C` has a remaining activity of 2 ± 0.3% (12G5 competition, SUP-T1 cells; human plasma; concentration not given, 8 h).
Under “remaining parent compound”, `O=C1CC2(CCCC2)CC(=O)N1CCCCN1CCN(c2ncccn2)CC1` is recorded as 64% (LC-MS; human liver microsomes; 10 µM, 20 min, pH 7.4, together with: NADPH; baseline: time 0).
`CC(C)C[C@H](NC(=O)[C@@H](N)C(C)C)C(=O)N[C@@H](CCCNC(=N)N)C(=O)N[C@@H](Cc1c[nH]c2ccccc12)C(=O)N[C@@H](CO)C(=O)N[C@@H](CCCNC(=N)N)C(=O)N[C@@H](CCCCN)C(=O)N[C@@H](CC(C)C)C(=O)N1CCC[C@H]1C(=O)N[C@@H](CS)C(=O)N[C@H](C(=O)N[C@@H](CO)C(N)=O)C(C)C` has a remaining activity of 7 ± 1% (12G5 competition, SUP-T1 cells; human plasma; 20 µM, 8 h, 37 °C).
`CCOc1ccc2ccc(=O)oc2c1` gave a remaining compound of 0.4% (mouse liver microsomes; 1 µM, 30 min, pH 7.4).
`N#Cc1ccc(Nc2nc(N)cc(Oc3c(F)cc(-c4ccc(C#N)cc4)cc3F)n2)cc1` gave a remaining compound of 83.4% (monkey plasma; 1 µM, 2.00 h, pH 7.4, 37 °C).
For `CC(C)OC(=O)c1sc(Nc2ncccn2)nc1-c1cnccn1`, the remaining parent was 36.2 area % (mouse liver microsomes; 60 min).
For `Cc1cc(C(=O)NC(C)(C)COc2cccc3c2C(N)=NS(=O)(=O)N3)cc(C)n1`, “remaining parent compound” read 98% (LC-MS; human liver microsomes; 10 µM, 60 min, pH 7.4, together with: NADPH; baseline: time 0).

Repeated from above:
For `CC(C)OC(=O)c1sc(Nc2ncccn2)nc1-c1cnccn1`, the remaining parent was 36.2 area % (mouse liver microsomes; 60 min).
